Experimental data from different studies.
Lines come from different studies, so protocols differ. Several values in a cell are separate wells, animals, samples, runs or records. Numbers after ± are the reported error.

For `CC1=CC=c2ccc3c4c2[N]1[Re](=[C]=O)(=[C]=O)(=[C]=O)([C]#[N+]c1cc(C)cc(C)c1)[N]4C(C)=CC=3.O=S(=O)([O-])C(F)(F)F`, the luminescence lifetime was 5.3 µs (PBS; pH 7.4, nitrogen-saturated).
For `CN(C)C(CNC(=O)Nc1cc(C(F)(F)F)ccc1N1CCOCC1)c1ccncc1` (stereo not drawn), the serum GGT was under 3 U/L (mouse, serum; intraperitoneal, 120 mg/kg single dose).
`CC[C@H](C)[C@H](N)C(=O)N[C@@H](CO)C(=O)N[C@@H](Cc1ccc(O)cc1)C(=O)NCC(=O)NCC(=O)N[C@@H](C)C(=O)N[C@@H](CC(=O)O)C(=O)N[C@@H](Cc1ccc(O)cc1)C(=O)N[C@@H](CCCCN)C(=O)O`: locomotor activity “no effect” (open field test; mice; intrathecal, dose not given, 30 min before test).
Under “log octanol-water partition coefficient”, `CCCCCCCCCCCCCCC(=O)O.O=C1CCCC2C3CCCN4CCCC(CN12)C34` (stereo not drawn) is recorded as 0.12 (shake-flask; simulated intestinal fluid; pH 6.8, 37 °C).
`O=C(CN1CCN(c2cc3c(cc2F)c(=O)c(C(=O)O)cn3C2CC2)CC1)Nc1ccc(Cl)cc1` gave a rate constant of 0.00199 min⁻¹ (two-compartment model, refers to: k10; BALB/c mice, female; iv, 3.75 mg/kg).
For `CC[C@H](C)[C@H](NC(=O)[C@H](Cc1ccccc1)NC(=O)[C@@H]1CCCN1C(=O)[C@H](CCCCN)NC(=O)[C@H](CCCCN)NC(=O)[C@H](Cc1ccccc1)NC(=O)[C@H](Cc1ccccc1)NC(=O)[C@@H](C)NC(=O)[C@@H](N)Cc1ccc(O)cc1)C(=O)N[C@@H](CC(C)C)C(=O)O`, “maximum mean arterial pressure” read 97 ± 8 mmHg (anesthetized rat; intrathecal, 10 nmol/rat, 1 to 5 min).
The efflux ratio of `CC=C(C)C(=O)OC1C2C3(C)CCC(OC4CC(OC)C(OC5OC(C)C(O)C(OC)C5O)C(C)O4)CC3CCC23OC32CCC(C(C)=O)C2(C)C1OC(C)=O` (stereo not drawn) is reported as 1.43 (Caco-2; 10 µM).
The percent metabolized of `CNC(=O)Oc1cc(C)c(S(C)(=O)=O)c(C)c1` is reported as 54.6% (human liver microsomes; 1 µM, 30 min, 0.5 mg/mL protein).
`CC[C@H](C)[C@@H]1NC(=O)[C@H](CCCNC(=N)N)NC(=O)C[C@@H](c2cccc3ccccc23)NC(=O)[C@@H]2CSSC[C@H](NC(=O)C[C@@H](c3cccc4ccccc34)NC(=O)[C@H](CCCNC(=N)N)NC(=O)[C@@H]3CCCN3C(=O)[C@@H]3CCCN3C1=O)C(=O)N[C@@H](Cc1ccccc1)C(=O)N1CCC[C@H]1C(=O)N[C@@H](CC(=O)O)C(=O)N[C@@H](CC(=O)O)C(=O)N[C@@H](Cc1ccccc1)C(=O)N2` — result for T-cell proliferation: “no effect” (refers to: Ki-67; CD3+ splenic T cells, BALB/c mouse; intravenous, 6 mg/kg on days 0 and 10, 48 h ex vivo; reference: control medium).
`O=C(NCCCCCn1ccc2ccc(F)cc21)Oc1ccccc1F` gave a parent remaining of 91 ± 3% (PBS with Triton X-100; 20 µM, 60 min, pH 7.4).
Under “subjects with palpitations TEAE”, `CC[C@H](C)C(=O)N1CCC(NC(=O)Nc2ccc(OC(F)(F)F)c(F)c2)CC1` is recorded as 0% (healthy volunteers; oral, 16 mg single dose).
`CN[C@](C)(C[18F])C(=O)O` gave a tissue uptake of 4.3 ± 0.5 %ID/g (SCID mouse SK-OV-3 xenograft, kidney; 120 min post injection).
`CC[C@H](C)[C@H](NC(=O)[C@H](CC(=O)O)NC(=O)[C@H](CO)NC(=O)[C@H](CCC(N)=O)NC(=O)[C@H](C)NC(=O)[C@H](CC(=O)O)NC(=O)[C@H](CCC(=O)O)NC(=O)[C@H](Cc1c[nH]cn1)NC(=O)[C@H](Cc1ccc(O)cc1)NC(=O)[C@H](C)NC(=O)[C@H](CC(=O)O)NC(=O)[C@H](CCC(=O)O)NC(=O)[C@H](Cc1c[nH]cn1)NC(=O)[C@H](Cc1ccc(O)cc1)NC(=O)[C@H](C)NC(=O)[C@H](CC(=O)O)NC(=O)[C@H](CCC(=O)O)NC(=O)[C@H](Cc1c[nH]cn1)NC(=O)[C@H](Cc1ccc(O)cc1)NC(=O)[C@H](C)NC(=O)[C@H](CC(=O)O)NC(=O)[C@H](CCC(=O)O)NC(=O)[C@H](Cc1c[nH]cn1)NC(=O)[C@H](Cc1ccc(O)cc1)NC(=O)[C@H](C)NC(=O)[C@H](CC(=O)O)NC(=O)[C@H](CCC(=O)O)NC(=O)[C@H](Cc1c[nH]cn1)NC(=O)[C@@H](N)Cc1ccc(O)cc1)C(=O)N[C@H](C(=O)N[C@@H](C)C(=O)N[C@@H](Cc1c[nH]cn1)C(=O)N[C@@H](CC(C)C)C(=O)N[C@@H](CC(C)C)C(=O)O)C(C)C` gave a haematocrit of 41.5 ± 5.7% (mouse, SN model; dose not given).
`COc1cc(NC(=O)C(=O)c2c(C)n(Cc3ccc(Cl)cc3)c3ccc(C)cc23)ccn1`: “number of plasma metabolites” 13 (cynomolgus monkey, both sexes, plasma; oral, 1000 mg/kg once daily, day 5).
`C[C@H](NCc1ccc(-c2ccc(C(F)(F)F)cc2)cc1)C(N)=O`: toxicity “not toxic” (Sprague Dawley rat; oral, 1000 mg/kg single dose).
With `CCCCC[C@@H]1OC(=O)[C@@H](C)N(C)C(=O)[C@H](CCCCC)OC(=O)[C@@H](C)N(C)C(=O)[C@H](CCCCC)OC(=O)[C@@H](C)N(C)C(=O)[C@H](CCCCC)OC(=O)[C@@H](C)N(C)C1=O` the efflux ratio was 1.3 (Caco-2; 10 µM, 2 h, pH 7.4).
For `CCN(Cc1ccccc1)C(=O)CCc1nc(CN2CCN(C(=O)Cc3ccc(OC)c(OC)c3)CC2)no1`, the concentration was under 90 ng/g (rat, liver; intravenous, 1 mg/kg, 1 h, single dose).
For `Cc1ccc(/C=C/C(=O)O)cc1-c1cc2c(cc1C)C(C)(C)CCC2(C)C`, the HDL level was 66 ± 6.1 mg/dL (Sprague-Dawley rat, male, plasma; oral, 100 mg/kg, 2 h, sesame oil vehicle).
The Tmax of `C(#Cc1cncc(OC[C@@H]2CCN2)c1)c1ccccc1` is reported as at most 1 h (male Sprague-Dawley rats, brain; oral, 3 mg/kg).
`[11CH3]Oc1ccc(C(=O)Nc2cc(-c3ccc(I)cc3)no2)cc1`: “parent compound fraction” ~21% and 21% (rhesus macaque, venous blood; intravenous, 5 min).
`CC(=O)[O-].CN1CCCN2CCN(C)CCCN(CC1)CC2.F[P-](F)(F)(F)(F)F.[Co+2]` gave a peak separation of 208 mV (cyclic voltammetry, refers to: second Co2+/Co3+ couple; acetonitrile).

A few entries again:
The percent metabolized of `CNC(=O)Oc1cc(C)c(S(C)(=O)=O)c(C)c1` is reported as 54.6% (human liver microsomes; 1 µM, 30 min, 0.5 mg/mL protein).
`COc1cc(NC(=O)C(=O)c2c(C)n(Cc3ccc(Cl)cc3)c3ccc(C)cc23)ccn1`: “number of plasma metabolites” 13 (cynomolgus monkey, both sexes, plasma; oral, 1000 mg/kg once daily, day 5).
`CC(=O)[O-].CN1CCCN2CCN(C)CCCN(CC1)CC2.F[P-](F)(F)(F)(F)F.[Co+2]` gave a peak separation of 208 mV (cyclic voltammetry, refers to: second Co2+/Co3+ couple; acetonitrile).
